Measured values collected from several papers.
Each numbered part is a random draw from the data of one study; scales do not carry over between parts. pEC50: −log10 of the molar value.
Sequence of UniProt P57059 (whole entry, looked up): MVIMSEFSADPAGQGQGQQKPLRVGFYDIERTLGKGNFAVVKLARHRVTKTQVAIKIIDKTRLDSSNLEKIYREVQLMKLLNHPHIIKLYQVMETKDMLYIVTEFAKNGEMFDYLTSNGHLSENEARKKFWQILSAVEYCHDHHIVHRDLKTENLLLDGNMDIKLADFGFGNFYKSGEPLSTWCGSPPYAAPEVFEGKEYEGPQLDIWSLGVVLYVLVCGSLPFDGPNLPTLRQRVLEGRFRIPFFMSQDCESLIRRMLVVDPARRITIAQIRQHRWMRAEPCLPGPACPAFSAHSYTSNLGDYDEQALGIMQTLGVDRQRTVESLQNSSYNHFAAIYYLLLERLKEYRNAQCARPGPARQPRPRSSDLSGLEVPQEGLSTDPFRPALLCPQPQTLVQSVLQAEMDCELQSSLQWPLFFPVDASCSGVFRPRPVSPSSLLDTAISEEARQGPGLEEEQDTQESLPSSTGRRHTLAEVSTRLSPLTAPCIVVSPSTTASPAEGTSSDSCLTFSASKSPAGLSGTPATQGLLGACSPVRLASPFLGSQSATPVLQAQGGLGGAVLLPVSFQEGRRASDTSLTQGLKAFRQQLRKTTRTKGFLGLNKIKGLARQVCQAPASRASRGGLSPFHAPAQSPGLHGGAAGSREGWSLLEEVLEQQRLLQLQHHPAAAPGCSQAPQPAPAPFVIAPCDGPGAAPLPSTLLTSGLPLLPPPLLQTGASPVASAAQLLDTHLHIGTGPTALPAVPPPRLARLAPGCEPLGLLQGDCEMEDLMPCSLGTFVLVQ
Sequence of UniProt Q13554 (whole entry, looked up): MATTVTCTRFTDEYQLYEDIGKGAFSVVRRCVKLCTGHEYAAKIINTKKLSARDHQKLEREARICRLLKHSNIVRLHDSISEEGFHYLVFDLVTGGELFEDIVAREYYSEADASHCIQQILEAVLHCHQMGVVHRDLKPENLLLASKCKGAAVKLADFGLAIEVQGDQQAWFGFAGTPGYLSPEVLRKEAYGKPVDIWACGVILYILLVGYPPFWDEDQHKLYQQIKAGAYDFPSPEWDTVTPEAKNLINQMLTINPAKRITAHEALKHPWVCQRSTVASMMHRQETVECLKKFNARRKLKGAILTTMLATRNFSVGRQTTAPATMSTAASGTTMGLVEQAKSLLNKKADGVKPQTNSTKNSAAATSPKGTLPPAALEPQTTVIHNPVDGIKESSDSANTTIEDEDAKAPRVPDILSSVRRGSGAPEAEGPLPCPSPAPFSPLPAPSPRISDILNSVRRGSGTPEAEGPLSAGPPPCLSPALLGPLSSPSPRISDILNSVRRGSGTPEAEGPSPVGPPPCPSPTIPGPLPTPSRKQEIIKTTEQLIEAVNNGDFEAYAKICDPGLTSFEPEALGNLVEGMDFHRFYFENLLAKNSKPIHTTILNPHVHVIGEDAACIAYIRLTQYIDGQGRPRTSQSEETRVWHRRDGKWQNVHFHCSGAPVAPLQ
Sequence of UniProt P07949 (whole entry, unmodified, looked up): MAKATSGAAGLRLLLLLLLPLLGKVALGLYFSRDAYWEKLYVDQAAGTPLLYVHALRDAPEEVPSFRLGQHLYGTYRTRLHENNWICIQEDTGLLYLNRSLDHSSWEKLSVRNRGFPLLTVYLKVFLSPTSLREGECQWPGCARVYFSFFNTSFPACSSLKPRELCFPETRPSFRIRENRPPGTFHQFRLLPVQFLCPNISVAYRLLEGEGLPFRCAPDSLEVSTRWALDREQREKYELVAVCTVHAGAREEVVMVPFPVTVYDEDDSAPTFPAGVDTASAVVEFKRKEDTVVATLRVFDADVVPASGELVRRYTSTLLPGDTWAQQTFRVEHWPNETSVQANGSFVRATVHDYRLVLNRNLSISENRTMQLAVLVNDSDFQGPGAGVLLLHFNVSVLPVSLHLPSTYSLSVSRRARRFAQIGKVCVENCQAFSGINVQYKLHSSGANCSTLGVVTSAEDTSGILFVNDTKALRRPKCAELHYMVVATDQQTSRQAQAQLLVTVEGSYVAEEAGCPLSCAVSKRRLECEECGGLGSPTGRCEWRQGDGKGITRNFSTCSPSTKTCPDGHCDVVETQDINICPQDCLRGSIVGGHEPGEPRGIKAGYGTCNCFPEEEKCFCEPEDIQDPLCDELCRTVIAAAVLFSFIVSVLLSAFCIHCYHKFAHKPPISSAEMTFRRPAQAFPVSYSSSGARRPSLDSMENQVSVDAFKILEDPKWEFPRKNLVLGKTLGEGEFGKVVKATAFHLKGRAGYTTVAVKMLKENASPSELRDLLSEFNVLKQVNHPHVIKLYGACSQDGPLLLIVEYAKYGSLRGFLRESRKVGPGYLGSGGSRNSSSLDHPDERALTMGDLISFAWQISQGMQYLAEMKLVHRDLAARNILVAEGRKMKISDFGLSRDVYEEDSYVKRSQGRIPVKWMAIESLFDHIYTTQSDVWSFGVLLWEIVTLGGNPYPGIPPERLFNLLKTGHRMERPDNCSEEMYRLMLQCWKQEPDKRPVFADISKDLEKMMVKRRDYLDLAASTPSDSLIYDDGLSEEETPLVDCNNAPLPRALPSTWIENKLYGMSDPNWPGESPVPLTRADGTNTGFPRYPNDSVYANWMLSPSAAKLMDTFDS
Sequence of UniProt P51817 (whole entry, looked up): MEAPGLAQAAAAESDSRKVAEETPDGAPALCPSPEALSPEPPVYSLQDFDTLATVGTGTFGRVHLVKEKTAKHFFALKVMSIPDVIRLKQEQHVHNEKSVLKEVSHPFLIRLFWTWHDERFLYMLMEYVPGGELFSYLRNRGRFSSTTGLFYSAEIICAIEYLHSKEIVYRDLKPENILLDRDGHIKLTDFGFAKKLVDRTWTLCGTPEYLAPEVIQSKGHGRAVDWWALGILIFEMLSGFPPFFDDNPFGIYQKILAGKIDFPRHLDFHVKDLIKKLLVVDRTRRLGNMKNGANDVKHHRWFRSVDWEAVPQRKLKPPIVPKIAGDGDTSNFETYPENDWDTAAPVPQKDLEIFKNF

Set 1
Compound: CC(=O)c1c(NS(C)(=O)=O)c2cc(-c3ccc(Cl)cc3)c(-c3ccc(Cl)cc3Cl)nc2n(C)c1=O
Concentration: 1 µM
Quantity: remaining binding
RET (Homo sapiens, UniProt P07949, M918T); cell-free assay, competition with immobilised ligand: 100%
MAPKAPK2 (Homo sapiens, UniProt P49137); cell-free assay, competition with immobilised ligand: 80%
PRKX (Homo sapiens, UniProt P51817); cell-free assay, competition with immobilised ligand: 97%
MAPKAPK5 (Homo sapiens, UniProt Q8IW41); cell-free assay, competition with immobilised ligand: 89%
Ribosomal protein S6 kinase alpha-3, C-terminal kinase domain (RPS6KA3, Homo sapiens, UniProt P51812); cell-free assay, competition with immobilised ligand: 100%
SIK1 (Homo sapiens, UniProt P57059); competition binding: 100%
IKBKE (Homo sapiens, UniProt Q14164); cell-free assay, competition with immobilised ligand: 73%
DCLK2 (Homo sapiens, UniProt Q8N568); cell-free assay, competition with immobilised ligand: 96%
CLK2 (Homo sapiens, UniProt P49760); cell-free assay, competition with immobilised ligand: 100%
Aurora kinase A (AURKA, Homo sapiens, UniProt O14965); cell-free assay, competition with immobilised ligand: 87%
FLT3 (Homo sapiens, UniProt P36888, K663Q); cell-free assay, competition with immobilised ligand: 100%
FLT3 (Homo sapiens, UniProt P36888, ITD); cell-free assay, competition with immobilised ligand: 98%
WEE2 (Homo sapiens, UniProt P0C1S8); cell-free assay, competition with immobilised ligand: 100%
CAMK2B (Homo sapiens, UniProt Q13554); cell-free assay, competition with immobilised ligand: 100%
VRK2 (Homo sapiens, UniProt Q86Y07); cell-free assay, competition with immobilised ligand: 100%
ALK (Homo sapiens, UniProt Q9UM73, C1156Y); cell-free assay, competition with immobilised ligand: 100%
PAK1 (Homo sapiens, UniProt Q13153); cell-free assay, competition with immobilised ligand: 96%
EGFR (Homo sapiens, UniProt P00533, A750P/del747-749); cell-free assay, competition with immobilised ligand: 91%

Set 2
Target: RAF proto-oncogene serine/threonine-protein kinase (RAF1, Homo sapiens, UniProt P04049)
Sequence of UniProt P04049 (whole entry, looked up): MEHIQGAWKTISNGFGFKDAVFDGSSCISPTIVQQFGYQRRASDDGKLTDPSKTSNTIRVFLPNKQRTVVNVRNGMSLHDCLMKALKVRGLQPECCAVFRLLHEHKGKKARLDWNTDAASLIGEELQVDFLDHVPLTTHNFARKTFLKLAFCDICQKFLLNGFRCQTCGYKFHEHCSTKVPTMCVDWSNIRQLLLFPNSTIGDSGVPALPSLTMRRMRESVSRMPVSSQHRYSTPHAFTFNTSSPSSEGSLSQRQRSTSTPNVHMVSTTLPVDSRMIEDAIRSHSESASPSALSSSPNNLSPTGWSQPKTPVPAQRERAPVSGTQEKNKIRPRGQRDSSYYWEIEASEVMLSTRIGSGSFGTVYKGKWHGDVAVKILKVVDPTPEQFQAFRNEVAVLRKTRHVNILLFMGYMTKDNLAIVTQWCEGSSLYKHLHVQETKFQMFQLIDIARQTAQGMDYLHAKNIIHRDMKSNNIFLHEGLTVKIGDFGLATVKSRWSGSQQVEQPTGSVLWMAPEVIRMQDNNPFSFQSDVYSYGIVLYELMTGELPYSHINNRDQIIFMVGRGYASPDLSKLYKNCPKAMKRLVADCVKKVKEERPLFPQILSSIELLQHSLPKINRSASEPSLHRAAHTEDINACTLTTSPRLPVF
Read-out: enzyme activity
Mode: inhibitor
Concentration: 0.5 µM
Baseline: control
Quantity: remaining activity
CC#CC(=O)Nc1cc2c(Nc3ccc(F)c(Cl)c3)ncnc2cn1: 85.6%
CC(C)(C)n1nc(Cc2cccc3ccccc23)c2c(N)ncnc21: 90.6%
CSc1nc(-c2ccnc(N[C@@H](C)c3ccccc3)c2)c(-c2ccc(F)cc2)[nH]1 (racemic): 88.9%
CC[n+]1c(/C=C/N(C)c2ccccc2)n(-c2ccccc2)c2ccc(-c3nc4ccccc4s3)cc21: 96.8%
CCCC(=O)Oc1ccc2[nH]c(C(=O)c3cc4ccccc4[nH]3)cc2c1: 98.7%
COc1cc(Nc2c(C#N)cnc3cc(OCCCN4CCN(C)CC4)c(OC)cc23)c(Cl)cc1Cl: 105%
COc1ccc(S(=O)(=O)N(CCO)c2ccccc2CN(C)CC=Cc2ccc(Cl)cc2)cc1: 93.7%
Cc1cc(Nc2nc(-c3ccccc3)nc3ccccc23)n[nH]1: 99.8%
Nc1nc(Nc2ccc(S(N)(=O)=O)cc2)nn1C(=O)c1c(F)cccc1F: 95.7%
Cc1cncc2cccc(S(=O)(=O)N3CCCN(C(=O)CN)C[C@@H]3C)c12: 95.1%
Nc1ncnc2c1cnn2-c1ccccc1: 95.4%

Set 3
SMILES: O=C1CCC(N2Cc3cc(C4CCN(Cc5ccccc5)CC4)ccc3C2=O)C(=O)N1 (stereo not shown)
Target: CRBN/Zinc finger protein Helios (Homo sapiens, UniProt Q96SW2+Q9UKS7)
Sequence of UniProt Q9UKS7 (whole entry, looked up): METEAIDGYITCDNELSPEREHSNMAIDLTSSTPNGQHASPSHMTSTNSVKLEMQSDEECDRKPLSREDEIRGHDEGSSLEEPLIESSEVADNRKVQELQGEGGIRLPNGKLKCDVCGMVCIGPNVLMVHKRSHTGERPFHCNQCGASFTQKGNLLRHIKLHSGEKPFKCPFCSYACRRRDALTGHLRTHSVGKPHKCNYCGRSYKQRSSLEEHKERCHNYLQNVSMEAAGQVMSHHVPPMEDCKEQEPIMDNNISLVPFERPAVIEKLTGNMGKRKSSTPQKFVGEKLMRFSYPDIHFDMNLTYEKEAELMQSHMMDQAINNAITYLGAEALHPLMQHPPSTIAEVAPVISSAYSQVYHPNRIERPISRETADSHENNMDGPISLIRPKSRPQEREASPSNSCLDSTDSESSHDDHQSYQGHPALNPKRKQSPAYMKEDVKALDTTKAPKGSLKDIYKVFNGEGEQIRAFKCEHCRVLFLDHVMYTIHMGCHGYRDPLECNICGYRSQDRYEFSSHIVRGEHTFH
Sequence of UniProt Q96SW2 (whole entry, looked up): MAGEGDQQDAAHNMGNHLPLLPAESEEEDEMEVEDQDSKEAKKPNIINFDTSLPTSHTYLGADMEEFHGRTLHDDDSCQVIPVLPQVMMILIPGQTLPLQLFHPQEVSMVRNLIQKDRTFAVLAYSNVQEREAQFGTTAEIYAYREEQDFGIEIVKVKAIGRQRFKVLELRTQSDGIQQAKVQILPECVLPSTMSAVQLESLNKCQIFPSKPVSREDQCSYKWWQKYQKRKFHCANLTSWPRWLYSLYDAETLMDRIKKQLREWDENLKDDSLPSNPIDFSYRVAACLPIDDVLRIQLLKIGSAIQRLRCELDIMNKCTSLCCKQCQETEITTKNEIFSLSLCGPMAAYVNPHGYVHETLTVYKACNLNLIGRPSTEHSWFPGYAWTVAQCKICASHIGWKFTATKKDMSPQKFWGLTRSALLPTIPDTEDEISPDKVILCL
Mode: degrader
Technique: HiBiT kinetics
Cell line: HEK293
Quantity: protein remaining
1.372 nM, 6 h: 55.4%
0.05081 nM, 6 h: 89.5%
12.35 nM, 0.5 h: 88.3%
37.04 nM, 1 h: 74.3%
111.1 nM, 1 h: 71.1%
0.1524 nM, 3 h: 84.6%
333.3 nM, 1 h: 73.1%
1000 nM, 3 h: 31.1%

Set 4
Target: Beta-1 adrenergic receptor (ADRB1, Homo sapiens, UniProt P08588)
Sequence of UniProt P08588 (whole entry, looked up): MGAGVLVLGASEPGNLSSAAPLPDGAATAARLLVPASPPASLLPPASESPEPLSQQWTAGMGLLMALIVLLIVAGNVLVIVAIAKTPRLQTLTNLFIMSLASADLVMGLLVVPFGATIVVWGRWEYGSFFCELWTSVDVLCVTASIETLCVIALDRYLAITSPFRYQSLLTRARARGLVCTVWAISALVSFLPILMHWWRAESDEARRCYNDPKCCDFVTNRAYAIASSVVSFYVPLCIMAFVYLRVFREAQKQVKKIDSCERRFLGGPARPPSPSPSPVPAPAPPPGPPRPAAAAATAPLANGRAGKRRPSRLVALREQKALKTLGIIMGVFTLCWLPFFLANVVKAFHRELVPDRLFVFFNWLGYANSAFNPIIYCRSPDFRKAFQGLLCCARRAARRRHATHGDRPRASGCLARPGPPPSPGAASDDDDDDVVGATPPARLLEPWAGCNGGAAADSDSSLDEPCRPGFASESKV
Mode: agonist
Quantity: pEC50
CC(C)CN(C)C(=O)c1cc(-c2cnn(C(C)C)c2)nc2ccc(F)cc12: ≤ 4.00
CCOc1ccccc1N1CCN([S+](=O)([O-])c2cc(OC)ccc2OC)CC1: ≤ 4.00
N#C/C(=C\c1ccc(O)c(O)c1)C(=O)NCCCCc1ccccc1: ≤ 4.00
O=c1ncn(CCC(F)(F)F)c2ccc(-c3ccccc3)nc12: ≤ 4.00
N#Cc1ccccc1CN1CCNc2nc(CNCc3ccccc3)n(Cc3ccccc3)c2C1=O: ≤ 4.00
CN(C)c1cccc(C(=O)N2CC(COc3ccccc3)C3(C2)CN(C(=O)c2cn[nH]c2)C3)c1 (stereo not shown): ≤ 4.00
COc1cc(-c2nccc3c(=O)cc(N(C)c4ccccc4)oc23)ccn1: ≤ 4.00
NCCn1cc(C(=O)NCC(O)c2ccccc2C(F)(F)F)nn1 (stereo not shown): ≤ 4.00
CN(C)c1cccc(-c2nccc3c(=O)cc(N4CCOCC4)oc23)c1: ≤ 4.00
O=c1c(Cl)c(NC(c2ccccc2)c2cccs2)cnn1-c1ccccc1 (stereo not shown): ≤ 4.00
COc1cc2nc(-c3cc4c(c(OC)c3)OCCNC4)cc(C)c2cc1OC: ≤ 4.00
COCCNCc1ccc(-c2cc3nccc(Oc4ccc(NC(=S)NC(=O)Cc5ccc(F)cc5)cc4F)c3s2)nc1: ≤ 4.00

Excerpt of the above (set 2):
CCCC(=O)Oc1ccc2[nH]c(C(=O)c3cc4ccccc4[nH]3)cc2c1: 98.7%
COc1cc(Nc2c(C#N)cnc3cc(OCCCN4CCN(C)CC4)c(OC)cc23)c(Cl)cc1Cl: 105%
COc1ccc(S(=O)(=O)N(CCO)c2ccccc2CN(C)CC=Cc2ccc(Cl)cc2)cc1: 93.7%
Cc1cc(Nc2nc(-c3ccccc3)nc3ccccc23)n[nH]1: 99.8%
Nc1nc(Nc2ccc(S(N)(=O)=O)cc2)nn1C(=O)c1c(F)cccc1F: 95.7%
Cc1cncc2cccc(S(=O)(=O)N3CCCN(C(=O)CN)C[C@@H]3C)c12: 95.1%
Nc1ncnc2c1cnn2-c1ccccc1: 95.4%
